{"data": "Experimental data pooled from the literature", "note": "Numbered parts are unrelated; each lists some results of a single study.", "chain of UniProt O14965 (whole entry, looked up)": "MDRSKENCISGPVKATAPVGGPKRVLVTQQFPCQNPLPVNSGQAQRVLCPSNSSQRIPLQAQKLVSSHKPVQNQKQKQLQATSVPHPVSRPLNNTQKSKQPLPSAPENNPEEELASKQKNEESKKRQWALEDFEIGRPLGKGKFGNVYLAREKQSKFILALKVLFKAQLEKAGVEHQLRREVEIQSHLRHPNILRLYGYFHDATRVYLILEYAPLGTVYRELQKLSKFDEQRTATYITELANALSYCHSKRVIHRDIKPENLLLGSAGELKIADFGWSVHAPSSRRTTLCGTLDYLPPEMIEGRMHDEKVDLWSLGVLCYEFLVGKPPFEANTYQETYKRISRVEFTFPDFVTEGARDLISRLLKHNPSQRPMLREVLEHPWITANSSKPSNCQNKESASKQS", "chain of UniProt Q16584 (whole entry, looked up)": "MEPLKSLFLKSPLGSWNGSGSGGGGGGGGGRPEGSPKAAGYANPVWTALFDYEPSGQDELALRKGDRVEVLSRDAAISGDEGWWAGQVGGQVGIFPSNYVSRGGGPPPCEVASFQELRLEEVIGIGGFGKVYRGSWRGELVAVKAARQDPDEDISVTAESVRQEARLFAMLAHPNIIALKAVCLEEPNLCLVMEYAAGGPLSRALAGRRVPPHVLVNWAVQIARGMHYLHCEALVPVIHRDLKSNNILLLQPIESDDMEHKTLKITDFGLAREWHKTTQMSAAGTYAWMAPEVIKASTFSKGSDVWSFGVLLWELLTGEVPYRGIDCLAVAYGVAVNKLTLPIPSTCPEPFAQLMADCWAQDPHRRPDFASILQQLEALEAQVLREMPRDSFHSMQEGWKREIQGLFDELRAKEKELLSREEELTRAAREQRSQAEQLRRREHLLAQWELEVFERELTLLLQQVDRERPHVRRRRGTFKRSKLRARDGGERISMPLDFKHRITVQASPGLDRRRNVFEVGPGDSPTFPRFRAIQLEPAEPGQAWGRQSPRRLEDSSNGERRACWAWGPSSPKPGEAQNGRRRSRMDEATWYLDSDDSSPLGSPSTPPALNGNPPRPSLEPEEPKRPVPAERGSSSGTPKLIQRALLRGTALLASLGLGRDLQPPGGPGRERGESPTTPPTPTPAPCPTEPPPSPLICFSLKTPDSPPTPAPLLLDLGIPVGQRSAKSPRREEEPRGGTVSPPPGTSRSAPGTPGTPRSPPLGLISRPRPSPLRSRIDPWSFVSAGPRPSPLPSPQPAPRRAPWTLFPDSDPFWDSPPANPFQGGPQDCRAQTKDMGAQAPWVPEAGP"}
{"data": "Set 1", "target": "TAR DNA-binding protein 43, full length, His tag (TARDBP, Homo sapiens, UniProt Q13148, residues 1-414)", "technique": "RNA Bind-n-Seq", "form": "RNA", "medium": "in vitro", "tested at": "20 nM", "setting": "6-mer, flanks averaged, single round", "with": "150 mM LiCl", "reference": "input library", "direction": "higher = stronger binding"}
{"Strand": "GAGGGA", "6-mer enrichment (R)": 1.2}
{"Strand": "AACGUU", "6-mer enrichment (R)": 0.846}
{"Strand": "CUCCUC", "6-mer enrichment (R)": 0.972}
{"Strand": "GAGCAA", "6-mer enrichment (R)": 0.902}
{"Strand": "AGUGUU", "6-mer enrichment (R)": 1.26}
{"Strand": "CCAGAA", "6-mer enrichment (R)": 0.838}
{"Strand": "UACUAA", "6-mer enrichment (R)": 0.86}
{"Strand": "UAAACG", "6-mer enrichment (R)": 0.82}
{"data": "Set 2", "target": "Max-binding protein MNT, bHLH-zipper, MAX partner unstated (MNT, Homo sapiens, UniProt Q99583, residues 220-300)", "technique": "protein-binding microarray", "form": "double-stranded DNA, one strand shown", "medium": "in vitro", "tested at": "not given", "setting": "k-mer, scored over probes, only values ≥0.25", "direction": "higher = stronger binding", "Construct (chain)": "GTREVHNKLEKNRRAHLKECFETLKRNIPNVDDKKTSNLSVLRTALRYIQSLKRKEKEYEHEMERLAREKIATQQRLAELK"}
{"Strand": "CCACGCGA", "E-score": 0.422}
{"Strand": "GCACGCCC", "E-score": 0.32}
{"Strand": "ACATGACC", "E-score": 0.319}
{"Strand": "CATCACAC", "E-score": 0.305}
{"Strand": "CGTGGCCC", "E-score": 0.38}
{"Strand": "CCCACGGC", "E-score": 0.253}
{"Strand": "AAGCACAT", "E-score": 0.358}
{"Strand": "ACGCGCCT", "E-score": 0.255}
{"data": "Other studies, line by line"}
{"Compound": "c1ccc(-c2cnc(Nc3ccc(OCCN4CCCC4)cc3)s2)cc1", "target": "Aurora kinase A (AURKA, Homo sapiens, UniProt O14965)", "assay": "enzyme activity, inhibitor", "setting": "0.5 µM", "how to read": "reference: control", "measurement": "remaining activity", "value": "95.3%"}
{"Compound": "CC(=O)C1=C(C)N(c2cccc(C(F)(F)F)c2)C(=O)N[C@@H]1c1ccc(C#N)nc1", "target": "Mitogen-activated protein kinase kinase kinase 11 (MAP3K11, Homo sapiens, UniProt Q16584)", "assay": "cell-free assay, competition with immobilised ligand", "setting": "1 µM", "measurement": "remaining binding", "value": "100%"}
{"note": "Some of these lines once more (other studies, line by line):"}
{"Compound": "CC(=O)C1=C(C)N(c2cccc(C(F)(F)F)c2)C(=O)N[C@@H]1c1ccc(C#N)nc1", "target": "Mitogen-activated protein kinase kinase kinase 11 (MAP3K11, Homo sapiens, UniProt Q16584)", "assay": "cell-free assay, competition with immobilised ligand", "setting": "1 µM", "measurement": "remaining binding", "value": "100%"}
{"Compound": "c1ccc(-c2cnc(Nc3ccc(OCCN4CCCC4)cc3)s2)cc1", "target": "Aurora kinase A (AURKA, Homo sapiens, UniProt O14965)", "assay": "enzyme activity, inhibitor", "setting": "0.5 µM", "how to read": "reference: control", "measurement": "remaining activity", "value": "95.3%"}
